Assay results collected from several papers.
Numbered parts are unrelated; each lists some results of a single study.

Sample 1
Target: Ras GTPase-activating protein-binding protein 1, full length (G3BP1, Homo sapiens, UniProt Q13283)
Sequence of UniProt Q13283 (whole entry, looked up): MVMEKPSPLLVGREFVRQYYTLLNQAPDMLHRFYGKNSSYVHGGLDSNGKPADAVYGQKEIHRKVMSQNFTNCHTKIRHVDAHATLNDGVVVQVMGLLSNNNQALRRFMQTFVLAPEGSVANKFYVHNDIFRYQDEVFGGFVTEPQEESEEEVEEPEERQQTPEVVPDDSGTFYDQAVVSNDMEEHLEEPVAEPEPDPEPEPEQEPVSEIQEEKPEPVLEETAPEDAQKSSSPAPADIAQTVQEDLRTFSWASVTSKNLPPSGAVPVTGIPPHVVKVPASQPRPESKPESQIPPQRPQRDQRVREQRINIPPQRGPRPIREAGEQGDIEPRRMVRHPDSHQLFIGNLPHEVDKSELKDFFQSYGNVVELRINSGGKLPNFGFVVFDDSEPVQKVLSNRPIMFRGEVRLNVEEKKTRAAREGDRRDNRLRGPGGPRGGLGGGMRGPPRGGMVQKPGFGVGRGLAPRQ
Method: RNA Bind-n-Seq
Form: RNA
Medium: in vitro
Concentration: 200 nM
Setting: whole 134-nt RNA, ends assumed
Together with: 150 mM LiCl
Baseline: input library
Reading: higher = stronger binding
Endpoint: log2 enrichment
Each molecule: 7-deaza-guanosine replaces G
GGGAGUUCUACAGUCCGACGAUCUCCUGUGCUACACAUCGUAUGUACCGAAUCGGGGAAAAAGGGGAAAGGGGUUUUUGGGGAAAGUAUUAUGUUACGCCGUUCGGAUCUGCAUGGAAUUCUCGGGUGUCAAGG: 0.681
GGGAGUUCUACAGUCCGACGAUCUAACUUUAGAGGAGGAUCUGAUGGAUAUGGCAGUGGACGUGGAUUUGGGGAUGGCUAUAAUGGGUAUGGAGGAGAACCUGGAGGUGGCAAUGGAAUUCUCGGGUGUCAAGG: 0.00232
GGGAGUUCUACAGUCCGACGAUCCACAGACAACACGCACCCACACAGACACACAGGGAAGGGGUUGGGAUGGGGACAGGGUGCACAGCAGGGCGGGGUAGGACCCCAGCCCCUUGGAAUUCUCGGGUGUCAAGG: -0.212
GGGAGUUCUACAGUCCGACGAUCUUUCUUCCCCCACAGUUCAUCCAUGAGCUCGGAUUUCCCACAUUACAACUUCAGGAUGCCUAAUAUUGGAUUCCAGAAUCUGCCUCUCAAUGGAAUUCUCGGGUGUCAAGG: 1.6
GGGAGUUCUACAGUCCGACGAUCCAAGUCCUGUGCUACACAUCGUAUGUACCGAAUCGGGUGGGAAAAAGGGAAAGGGAAAGUAUUAUGUUACGCCGUUCGGAUCUGCACUUCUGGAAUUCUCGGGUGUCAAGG: -0.831
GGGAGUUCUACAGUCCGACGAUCCCUCAAGUCCUGUGCUACACAUCGUAUGUACCGAAUCGGGAGGGAGGGUGGGAAAGUAUUAUGUUACGCCGUUCGGAUCUGCACUUCCAGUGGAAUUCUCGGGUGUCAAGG: -0.508
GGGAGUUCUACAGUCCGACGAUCGGCACAGGUGCCCGACCAUACACUGGGAAAGUUGGUGCUGAGGAUGCCGAUGGGAUUGACAUGGCCUACCGGGUGCUGGCUGACCACGCUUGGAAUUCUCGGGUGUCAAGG: -1.35
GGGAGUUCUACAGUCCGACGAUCUAACUUUAGAGGAGGAUCUGAUGGAUAUGGCAGUGGACGCGGAUUUGGGGAUGGCUAUAAUGGGUAUGGAGGAGGACCUGGAGGUGGCAAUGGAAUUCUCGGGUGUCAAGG: -0.0698

Sample 2
Target: Replicase polyprotein 1ab, main protease (rep, Severe acute respiratory syndrome coronavirus 2, UniProt P0DTD1)
Observed: enzyme activity
Action: inhibitor
Setting: with DTT
Endpoint: IC50
COc1ccnc(C[S+]([O-])c2nc3ccc(OC(F)F)cc3[nH]2)c1OC (stereo not shown): 1100 nM
CC(CN1CC(=O)NC(=O)C1)N1CC(=O)NC(=O)C1 (stereo not shown): 190 nM
CCN(CC)C(=S)S: > 20000 nM

Sample 3
Cell line: HEK-293T
Observed: pseudovirus infection
Organism: VSV pseudotyped with SARS-CoV-2 spike
Concentration: 10 µM
Time: 16 h
Baseline: vehicle-treated
Endpoint: GFP-positive cells
CC[C@]1(O)C[C@@H]2CN(CCc3c([nH]c4ccccc34)[C@@](C(=O)OC)(c3cc4c(cc3OC)N(C)[C@H]3[C@@](O)(C(=O)OC)[C@H](OC(C)=O)[C@]5(CC)C=CCN6CC[C@]43[C@@H]65)C2)C1: 1.32%
C[C@@H](O)[C@H]1C(=O)N2C(C(=O)O)=C(SCCN=CN)C[C@H]12: 90.4%
NC(=O)c1cn(Cc2c(F)cccc2F)nn1: 86.6%

Sample 4
Target: RNA binding protein fox-1 homolog 2, RRM domain, GST-SBP tag (RBFOX2, Homo sapiens, UniProt O43251-10, residues 100-194)
Method: RNA Bind-n-Seq
Form: RNA
Medium: in vitro
Concentration: 365 nM
Setting: natural RNA segment, single round, ends assumed
Baseline: no-protein control
Reading: higher = stronger binding
Endpoint: RBNS enrichment (R)
Residues (chain): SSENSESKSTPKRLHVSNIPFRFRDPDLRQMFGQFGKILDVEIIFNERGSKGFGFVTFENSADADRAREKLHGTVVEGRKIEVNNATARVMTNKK
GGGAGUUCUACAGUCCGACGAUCUACAACACCUAAUAUACACUAACAGCAGUAAGACUAAGCCAGGCAGUCUUAAAAAAUUCUAUCAGAUGUGUCAUGAGACUGUUUCAGACUCAUGUCUGCUUAAAAUUCACUGGAAUUCUCGGGUGCCAA: 0.578
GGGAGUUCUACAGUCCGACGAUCCCUUUCAGGCCCUACUGAGACAGGUGAUGGGAAUUUUUUCUUUAUUUUUUAGGUUAACUGAGCUGCUUUGUGCUCAGAAUCUACAUUCCAGAUUGAGGAUUUAGUGUCUUUGGAAUUCUCGGGUGCCAA: 0.624
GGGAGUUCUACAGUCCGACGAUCUUAAAAAAGCUCAAUGCAUUGUCUUGUGGAGGAUGAAUAGAUGUGAUCACUGAGACAGCCACUUGGUUUUUGGCUCUUUCAGAGAGGUCUCAGGUUCUUUCCAUGCAGACUGGAAUUCUCGGGUGCCAA: 0.885
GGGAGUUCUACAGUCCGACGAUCUAUGGGUUCCUCUGAGUUGUUUUAGAAAAUUAGCGCAAUGUAUUAAAAUCAAGUGUUAGGAAAUUUCAUGGUCUUACCUACAAUAACUUUUAUUUUGGAAUUGAACUAUUUGGAAUUCUCGGGUGCCAA: 0.619
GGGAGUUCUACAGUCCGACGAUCUUGAGGUACUAAAACUGCAGGUGGGUAUGUCCAUCUCAUCCAUUGUGGCUUGAGACCGGCCUUCAGGAGUCCGCUCUCCAUUUAAACAUCCUUUCUUAUUCAUAGCGCACUGGAAUUCUCGGGUGCCAA: 0.469
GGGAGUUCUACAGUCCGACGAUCUAGAGAGAAAGAGAGAGAGAGAGAGUUGGCAUAAGGACAGUCUUAUCUGUGUCAACCCUCUGCCUGCAGGGACAGAUAAAUGGAACUCUGGUUGUGAUAUCAUAACUAAGUGGAAUUCUCGGGUGCCAA: 1.94
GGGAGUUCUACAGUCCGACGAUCAAAUUCAAUUUUAAGACCUCCCUGUGGUAAUUGGGAGAGGUAGCCGAGUCACACCCGGUGGCUCUGGUAUGAAUUCACCCGAAGCGCUUCUGCACCAACUCACCUGGCCGUGGAAUUCUCGGGUGCCAA: 0.497
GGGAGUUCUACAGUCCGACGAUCGAGAUCAGGAUUCCACUGACGUCCUGGGCAGCCAGUGAAUUUAAUUUUCCAUGAGAAACAACAGAGUUAACCUGUGGCAUUAGGAGACCUACUUCAUGUGGACCCUUUUUUGGAAUUCUCGGGUGCCAA: 0.319

Sample 5
Target: Sal-like protein 4, full length isoform B (SALL4, Homo sapiens, UniProt Q9UJQ4-2, residues 1-616)
Method: universal PBM
Form: double-stranded DNA, one strand shown
Medium: in vitro
Concentration: not given
Setting: 8-mer, flanks averaged, mean of replicates
Reading: higher = stronger binding
Endpoint: E-score
AGGAGCCC: -0.27
TTACCTAA: 0.188
ATGGCTGA: 0.0415
GTACTGTA: 0.0934
CGCAACCA: -0.22
GTGTAAAC: 0.0358
CTCTCGTC: -0.0981
TAGGTCAA: 0.128

Sample 6
Target: Replicase polyprotein 1ab, nsp13 helicase (rep, Severe acute respiratory syndrome coronavirus 2, UniProt P0DTD1)
Action: inhibitor
Concentration: 20 µM
Endpoint: inhibition
CN1CCC(=C2c3ccccc3Sc3ccccc32)CC1: -0.62%
O=C1c2ccccc2S(=O)(=O)N1CCCCN1CCN(c2ncccn2)CC1: 0.09%
COc1ccc(/C=C2\CCCN=C2c2cccnc2)c(OC)c1: 1.6%
COc1c(N2CCNC(C)C2)c(F)cc2c(=O)c(C(=O)O)cn(C3CC3)c12 (stereo not shown): 9.55%
CCOC(=O)COc1ccc2c(=O)cc(-c3ccccc3)oc2c1: 11.7%
COc1cc(N2CCC(N3CCN(C)CC3)CC2)ccc1Nc1ncc(Cl)c(Nc2ccccc2S(=O)(=O)C(C)C)n1: 8.48%
COc1ccc2cc1Oc1ccc(cc1)C[C@H]1c3c(cc4c(c3Oc3cc5c(cc3OC)CCN(C)[C@@H]5C2)OCO4)CCN1C: 19.3%
CCCC(=O)O[C@]1(C(=O)CCl)[C@H](C)C[C@@H]2[C@@H]3CCC4=CC(=O)C=C[C@]4(C)[C@]3(F)C(=O)C[C@@]21C: 9.05%
Nc1ccc2cc3ccc(N)cc3nc2c1: 28.8%
Cn1cc(-c2ccc3ncc(Cc4ccc5ncccc5c4)n3n2)cn1: 12.6%
CC1(C)CCC(C)(C)c2cc(C(=O)Nc3ccc(C(=O)O)cc3)ccc21: 5.98%
O=C(OCCN1CCCCC1)c1c[nH]c2ccccc12: 4.63%
C=CCNC(=O)c1cc([N+](=O)[O-])cc2c(=O)[nH]c(Nc3ccc(Cl)c(Cl)c3)nc12: 3.54%
C#CCN[C@@H]1CCc2ccccc21: 3.24%
C#CC[C@H](c1nc2cc(Cl)ccc2c(=O)n1Nc1ccccc1)N(CCCN)C(=O)c1cccc(Cl)c1F: 12.1%
CCCCCCOc1nsnc1C1=CCCN(C)C1: 7.07%
O=C(O)CCCCCCCCC(=O)O: 7.83%
N[C@@H](CCC(=O)N[C@@H](CSN=O)C(=O)NCC(=O)O)C(=O)O: 9.37%
C=CCOc1ccccc1OCC(O)CNC(C)C (stereo not shown): -1.89%
O=C1CCC2CCC(=O)N12: -0.16%
CC(=O)c1ccc(S(=O)(=O)NC(=O)NC2CCCCC2)cc1: 4.55%
CC(=O)Nc1ccc(OC[C@](C)(O)C(=O)Nc2ccc([N+](=O)[O-])c(C(F)(F)F)c2)cc1: 6.24%
Cc1nccc2c1[nH]c1ccccc12: 4.69%
CCNC(=O)/C=C/c1cccc(Br)c1: 4.68%
CC(C(=O)O)c1ccc(CC2CCCC2=O)cc1 (stereo not shown): 2.04%

Excerpt of the above (sample 6):
CN1CCC(=C2c3ccccc3Sc3ccccc32)CC1: -0.62%
O=C(O)CCCCCCCCC(=O)O: 7.83%
CC(=O)Nc1ccc(OC[C@](C)(O)C(=O)Nc2ccc([N+](=O)[O-])c(C(F)(F)F)c2)cc1: 6.24%
C=CCNC(=O)c1cc([N+](=O)[O-])cc2c(=O)[nH]c(Nc3ccc(Cl)c(Cl)c3)nc12: 3.54%
CCOC(=O)COc1ccc2c(=O)cc(-c3ccccc3)oc2c1: 11.7%
CCCCCCOc1nsnc1C1=CCCN(C)C1: 7.07%
COc1cc(N2CCC(N3CCN(C)CC3)CC2)ccc1Nc1ncc(Cl)c(Nc2ccccc2S(=O)(=O)C(C)C)n1: 8.48%
O=C1CCC2CCC(=O)N12: -0.16%
